Experimental data from different studies.
Every numbered part comes from another study and shows a few of its results, in no order. Changes are numbered by the printed parent chain.

Study 1 — technique: RNA Bind-n-Seq; molecule type: RNA; sample: in vitro; concentration: 1 µM; setting: whole 134-nt RNA, ends assumed; with: 150 mM KCl; reference: input library; reading: higher = stronger binding; measurement: log2 enrichment
Target: Ras GTPase-activating protein-binding protein 1, RRM domain (G3BP1, Homo sapiens, UniProt Q13283)
Sequence of UniProt Q13283 (whole entry, looked up): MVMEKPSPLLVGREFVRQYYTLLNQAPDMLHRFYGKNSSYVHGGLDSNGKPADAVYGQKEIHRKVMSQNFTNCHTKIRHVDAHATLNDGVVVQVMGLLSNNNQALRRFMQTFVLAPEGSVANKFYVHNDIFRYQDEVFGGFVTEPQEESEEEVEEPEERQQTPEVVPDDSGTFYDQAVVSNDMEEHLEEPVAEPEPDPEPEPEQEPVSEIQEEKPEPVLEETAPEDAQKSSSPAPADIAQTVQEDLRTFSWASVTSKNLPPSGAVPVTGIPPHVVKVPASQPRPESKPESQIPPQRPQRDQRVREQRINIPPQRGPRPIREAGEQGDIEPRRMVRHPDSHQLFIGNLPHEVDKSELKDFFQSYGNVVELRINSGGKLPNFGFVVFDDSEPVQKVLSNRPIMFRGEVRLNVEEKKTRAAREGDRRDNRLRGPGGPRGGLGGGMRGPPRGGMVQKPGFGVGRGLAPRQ
Shared flanks, not repeated: GGGAGUUCUACAGUCCGACGAUC … UGGAAUUCUCGGGUGUCAAGG
UCCUGUGCUACACAUCGUAUGUACCGAAUCGGCCCCCCGGGGCCCCCCGGGGCCCCCCGGAAAGUAUUAUGUUACGCCGUUCGGAUCUGC: -0.455
UUCCUCAAGUCCUGUGCUACACAUCGUAUGUACCGAAUCGGUGGUGGGUGGAAAGUAUUAUGUUACGCCGUUCGGAUCUGCACUUCCAGC: -0.17
UGGGAGGUGGAUUUUGUUUAUUGUUUUAGCUCAUUUCCAGGGGUGGGAAUUUUUUUUUAAUAUGUGUCAUGAAUAAAGUUGUUUUUGAAA: 1.53
AGUCCUGUGCUACACAUCGUAUGUACCGAAUCGGGGUUUUUGGGUUUUUGGUUUUUGGAAAGUAUUAUGUUACGCCGUUCGGAUCUGCAC: -0.321
AGUCCUGUGCUACACAUCGUAUGUACCGAAUCGGGGUGGGGAAAGGGGAAAAAGGGGAAAGUAUUAUGUUACGCCGUUCGGAUCUGCACU: 0.646
GUCCUGUGCUACACAUCGUAUGUACCGAAUCGGGAAAGGGUUUUUGGGUUUUUUUGGGAAAGUAUUAUGUUACGCCGUUCGGAUCUGCAC: 0.172
UAACUUUAGAGGAGGAUCUGAUGGAUAUGGCAGUGGACGUGGAUUUGGGGAUGGCUAUAAUGGGUAUGGAGGAGGACCUCGAGGUGGCAA: -0.475
UAACUUUAGAGGAGGAUCUGAUGGAUAUGGCAGUCGACGUGGAUUUGGGGAUGGCUAUAAUGGGUAUGGAGGAGGACCUGGAGGUGGCAA: -0.833
ACCAUGCAGGUGGGCAUCUUUGGGAAGUGGGGCAAGGGGGGGAUAGGGAGGGGGGUAACACUUUGAAAACAGGUGGUCCCAGGUCGUUUC: -0.473
ACCUUCACGGCAUGGUGCAACUCCCACCUGCGGAAGGCAGGCACACAGAUCGAGAACAUUGAUGAGGACUUCCGAGACGGGCUCAAGCUC: -0.11
CAGUUUAAGAGGGGUUUCAUGCAAGGGCAUGUAAAUAGACAAGAAAAAGAAGAAAAAGAAGCAAUAUAUAAAGAACGUUGGCCAGAUUAU: 0.162
UCCUCAAGUCCUGUGCUACACAUCGUAUGUACCGAAUCGGAGGGGAGGAGGAAAGUAUUAUGUUACGCCGUUCGGAUCUGCACUUCCAGC: -0.181
UUUACAAAUAUGCCCAAGACUUCUUGGUGGCUAUUGCAGAGCCAGUGUGCCGACCAACCCAUGUGCAUGAGUACAAACUAACUGCCUACU: 0.0311
CCAGGAAGUAAAAACAAAUGGAAAUGCUUCGGAUAGUGGCAGGGGUGGGGGUUGCUAAGGAAAGGGUGGGAUGGGAGUGGGUAAAGAGUU: 1.1

Study 2 — technique: aptamer microarray, sandwich; molecule type: DNA with 2'F-ANA; sample: in vitro; concentration: 200 nM; with: Cy3 exosite-II aptamer, 400 nM; reading: higher = stronger binding; measurement: mean fluorescence intensity; sequence: GGTTGGTGTGGTTGG
Target: Prothrombin, mature alpha-thrombin (F2, Homo sapiens, UniProt P00734)
Setting: whole 15-mer aptamer, many near background
2'F-ANA at 2 3 6 7 10 13 14 15: 244 a.u.
2'F-ANA at 2 4 11 12 13 14 15: 113 a.u.
2'F-ANA at 3 5 6 9 10 12 13 14 15: 72.4 a.u.
2'F-ANA at 1 2 3 4 5 8 11: 84 a.u.
2'F-ANA at 2 4 7 10 12 13 15: 104 a.u.
2'F-ANA at 1 3 9 10 11 13: 73.2 a.u.
2'F-ANA at 1 2 5 6 9 13: 48.6 a.u.
2'F-ANA at 1 3 7 9 10 11 12 13: 96.9 a.u.
2'F-ANA at 1 4 6 7 8 9 10 12: 61.5 a.u.
2'F-ANA at 1 6 7 8 10 12 13 15: 68.5 a.u.
2'F-ANA at 1 3 4 8 9 12 13 14 15: 73.8 a.u.
2'F-ANA at 2 3 5 6 7 11 13 14: 46.8 a.u.
2'F-ANA at 1 4 7 9 13: 76.9 a.u.
2'F-ANA at 1 2 3 9 12 13 14: 80.8 a.u.
2'F-ANA at 1 2: 216 a.u.
2'F-ANA at 3 4 5 10 11 12 15: 59.7 a.u.
2'F-ANA at 1 2 5 6 7 9 13 14 15: 47.7 a.u.
2'F-ANA at 3 5 7 10 11 15: 58.1 a.u.
2'F-ANA at 2 4 7 8 10 12 14 15: 68.3 a.u.
2'F-ANA at 1 2 5 8 10 11: 48 a.u.

Study 3 — technique: DHFR PCA, deep sequencing; sample: yeast; with: (+)-ABA 0.0091 µM; reference: wild-type fitted maximum; reading: higher = stronger binding; measurement: relative binding score
Target: ABI1, truncated, D143A, DHFR fusion (Arabidopsis thaliana)
Setting: methotrexate growth selection, single substitutions
Parent: PYL1, truncated, DHFR fusion (Arabidopsis thaliana); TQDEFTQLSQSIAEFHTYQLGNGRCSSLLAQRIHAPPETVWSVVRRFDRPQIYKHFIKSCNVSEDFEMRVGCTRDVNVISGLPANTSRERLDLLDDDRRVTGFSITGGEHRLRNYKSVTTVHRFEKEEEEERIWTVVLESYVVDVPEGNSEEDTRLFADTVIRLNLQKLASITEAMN
I79K: -0.517%
R132S: 48.5%
H16R: -1.25%
Q2T: 19.4%
P50A: -7.28%
A175W: 0.691%
D144T: -1.07%
V40G: -3.21%
S117Y: 4.24%
L164P: -5.27%
E152F: 0.392%
I162L: 0.29%
E129I: 3.25%
Q7P: 4.39%
S59W: 9.04%
S63Y: 5.57%
F157N: -3.38%

Study 4 — target: CCNB3, cyclin fold, Cln2 fusion (human); technique: yeast growth competition, sequencing; sample: yeast; setting: weak parent motif; reference: not given; reading: higher = stronger binding; measurement: normalised enrichment score
Parent: RP1L1 docking peptide (human); TLGLGPLSFTLED
TLGLGPLAFTLED [S8A]: -0.109
TLGLGPLSFTAED [L11A]: -0.343
TLGLGPLSFTLAD [E12A]: -0.0576
TLGLGPASFTLED [L7A]: -0.17
TLGLAPLSFTLED [G5A]: 0.228
TLGLGALSFTLED [P6A]: -0.141

Study 5 — technique: protein-binding microarray; molecule type: double-stranded DNA, one strand shown; sample: in vitro; concentration: 2200 nM top; setting: 60-bp whole probe; with: salmon DNA 0.4 mg/ml; reference: random background probes; reading: higher = stronger binding; measurement: fitted relative affinity; shared flanks, not repeated: GCCTAGCAC … GTCTTGATTCGCTTGACGCTGCTG
Target: Interferon regulatory factor 7, full length, phosphomimetic (IRF7, Homo sapiens, UniProt Q92985, residues 1-503, S471D/S472D/S475D/S476D/S477D/S483D/S484D/S487D)
Target sequence (chain): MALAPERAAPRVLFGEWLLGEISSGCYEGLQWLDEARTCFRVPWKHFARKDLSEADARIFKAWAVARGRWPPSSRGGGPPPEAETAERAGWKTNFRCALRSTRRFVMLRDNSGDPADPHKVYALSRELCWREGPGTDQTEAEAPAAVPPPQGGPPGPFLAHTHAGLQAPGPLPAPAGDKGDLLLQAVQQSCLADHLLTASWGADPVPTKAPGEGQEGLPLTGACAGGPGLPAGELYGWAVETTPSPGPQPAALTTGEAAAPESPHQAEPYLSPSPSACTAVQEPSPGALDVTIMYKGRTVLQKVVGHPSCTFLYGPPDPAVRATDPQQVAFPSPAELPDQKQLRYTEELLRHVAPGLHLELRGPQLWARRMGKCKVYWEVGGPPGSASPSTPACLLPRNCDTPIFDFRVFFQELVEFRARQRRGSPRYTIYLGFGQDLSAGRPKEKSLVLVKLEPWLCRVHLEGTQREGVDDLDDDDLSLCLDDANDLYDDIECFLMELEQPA
GTGAAATAAGGGAGGCCTAGGTGCTAG: -0.823 z-score
TTAGGTTTCGGTTCCAGTTAGTGCTAG: 10.2 z-score
GACGGTTTCGGTTCCGGTACGTGCTAG: 11.5 z-score
GACGGTCTCCTTCTCCAGACGTGCTAG: 1.03 z-score
TTAGATTTCGGGTATCGTTTAGTGCTA: 3.27 z-score
CAGTTTCTCTTTCCTTCTTGGTGCTAG: 9.81 z-score
CTCTGTCTAAAATTGTTAAAGTGCTAG: 0.136 z-score
GAGTTCCTCTCTAGGCACTGGTGCTAG: 0.452 z-score
TTAGAGCTGAGTCTCGATTAGTGCTAG: -0.467 z-score
TCAGCTTTCTTTTATGCACTGTGCTAG: 1.39 z-score
GACGGTTTCGGTTTCGCGACGTGCTAG: 14.6 z-score
GAAGGACTGGGACTGGGGACGTGCTAG: -0.89 z-score
GACGATCTCAGTCTCTAGACGTGCTAG: 0.251 z-score
TTACGTTTCGGTCTCGGTTAGTGCTAG: 7 z-score
GGCCGTCTGAGCTCCGTAGCGTGCTAG: -0.797 z-score
GCCGATCTCAGTATCGAGACGTGCTAG: 0.339 z-score
GACGGTATCGACTTTCCGGACGTGCTA: 1.41 z-score
TTAGATGTCGGGTATCGATTAGTGCTA: 0.0605 z-score
TTAGGTATCGGCACTGGGTTAGTGCTA: -0.305 z-score
TTAGATATCAGAGTGGATTAGTGCTAG: -0.432 z-score
GACAATTTCAGTTTCGAGACGTGCTAG: 5.55 z-score
TCAGGTCTGGGTATTTTACTGTGCTAG: 0.036 z-score
TTAGATATCGGGCATCGATTAGTGCTA: -0.51 z-score
TTAGATTTGAGTTCCGATTAGTGCTAG: 0.628 z-score
TTGGTGCTCATTTTTTTTGCGTGCTAG: 0.333 z-score

A few entries again (study 3):
R132S: 48.5%
H16R: -1.25%
Q2T: 19.4%
P50A: -7.28%
A175W: 0.691%
D144T: -1.07%
V40G: -3.21%
